Results collected from several papers.
Each line is one published result; not all experiments were run side by side. “And” joins repeats or separate records; there may be more than shown. ± marks the error that the study gave.
UniProt P05181, sequence (whole entry, looked up): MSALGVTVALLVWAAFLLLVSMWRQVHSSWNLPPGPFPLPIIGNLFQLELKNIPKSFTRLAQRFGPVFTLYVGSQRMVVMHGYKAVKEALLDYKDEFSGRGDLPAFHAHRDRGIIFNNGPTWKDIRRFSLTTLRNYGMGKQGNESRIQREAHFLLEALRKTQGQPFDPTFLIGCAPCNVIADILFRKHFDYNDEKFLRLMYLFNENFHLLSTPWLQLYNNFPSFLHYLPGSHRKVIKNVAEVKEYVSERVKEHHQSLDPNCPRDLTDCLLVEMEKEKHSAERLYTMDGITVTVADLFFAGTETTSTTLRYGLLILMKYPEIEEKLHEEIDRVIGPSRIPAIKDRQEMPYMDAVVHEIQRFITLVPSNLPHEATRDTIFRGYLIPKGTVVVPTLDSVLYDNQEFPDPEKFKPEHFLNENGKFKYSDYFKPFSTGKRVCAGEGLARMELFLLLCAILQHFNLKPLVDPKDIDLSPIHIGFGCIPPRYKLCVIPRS

| SMILES | target or system | test | test system | conditions | endpoint | value |
| --- | --- | --- | --- | --- | --- | --- |
| C[C@@H](c1ccc2nccn2c1)n1nnc2ncc(-c3cn[nH]c3)nc21 | Cytochrome P450 2E1 (CYP2E1, Homo sapiens, UniProt P05181) | enzyme activity, inhibitor | human, liver microsomes |  | IC50 | > 50 µM |
| C#Cc1ccc2c(c1)C(c1ccccn1)=NCc1c(-c3cnco3)ncn1-2 |  |  | rat, plasma | oral, 2 mg/kg | Cmax | 0.669 µM |
| Cc1nc2cccc(OCC(C)(C)C(=O)NC(C)C)c2c(N)c1C(=O)[O-].[Na+] | Escherichia coli | reverse mutation, preincubation | WP2 uvrA | 0.13 mg/plate, with rat liver S9 | revertant colonies | 38 ± 7 colonies/plate |
| CN1CC[C@]23c4c5ccc(O)c4O[C@H]2[C@H](O)C=C[C@H]3[C@H]1C5 |  |  |  | phenolate site | log k protonation constant | 9.34 |
| Cc1ccc(NS(=O)(=O)c2c(C(=O)N3CCCCCC3)c(C)n(C)c2C)c(Cl)c1 | CV-1 |  | African green monkey cells | 0.046 µM, 60 (unit not given) | viability | 97.4% and 91.9% |
| COc1ccc(-n2cc(C(=O)N3C[C@]4(OC(=O)c5ccccc5NC(C)=O)CC[C@H](OC)[C@@]56[C@@H]4C[C@@H]([C@@H]35)[C@@]3(O)C[C@H](OC)[C@H]4C[C@@H]6[C@]3(O)[C@H]4OC)nn2)cc1 |  |  | Sprague-Dawley rat, plasma | intravenous, 2 mg/kg, 30 min | concentration | 0.0252 µg/mL |
| CC(=O)NCCCC[C@@H]1NC(=O)[C@H](Cc2c[nH]c3c(C)cccc23)NC(=O)[C@H]([C@@H](C)O)NC(=O)[C@H](CC(N)=O)NC(=O)[C@@H](NC(C)=O)C(C)(C)SSC(C)(C)[C@@H](C(=O)N[C@@H](Cc2ccc(OCCN)cc2)C(=O)N[C@@H](Cc2ccc3ccccc3c2)C(=O)NC2(C(=O)N[C@@H](CCC(=O)O)C(=O)N[C@@H](CC(N)=O)C(=O)N[C@@H](Cc3cccnc3)C(=O)N(C)CC(N)=O)CCOCC2)NC1=O | human alpha-1-acid glycoprotein 0.07% | equilibrium dialysis |  | 0.1 µM | protein binding | 10.6 ± 1.9% |
| O=C1CC[C@@]2(O)[C@H]3Cc4ccc(O)c5c4[C@@]2(CCN3CCc2ccccc2)[C@H]1O5 |  |  |  |  | log tautomerization constant | 1.81 |
| C[C@H]1[C@H](OC(=O)CCC(=O)OCc2nnn(-c3cc4ccc(O)cc4oc3=O)c2COC(=O)CCC(=O)O[C@@H]2O[C@@H]3O[C@@]4(C)CC[C@H]5[C@H](C)CC[C@@H]([C@H]2C)[C@@]35OO4)O[C@@H]2O[C@@]3(C)CC[C@H]4[C@H](C)CC[C@@H]1[C@@]24OO3 | Plasmodium berghei | flow cytometry | infected mouse blood | 3 µM, 1 h | uptake into parasites | 7 ± 3 % stained cells |
| O=C1NC2(CC2)COc2ncc(F)cc2[C@H]2COCCN2c2ccn3ncc1c3n2 |  |  | Sprague-Dawley rat, female, serum | oral, 2.5 mg/kg/day, end of treatment, 4-week subacute toxicity | serum urea | 6.1 ± 1.03 mmol/L |
| O=C1CC[C@H]2[C@H]3Cc4ccc(O)c5c4[C@@]2(CCN3CCc2ccccc2)[C@H]1O5 |  |  |  |  | log k amino protonation | 9.96 |
| CCc1nnc(NS(=O)(=O)c2ccc(NC(=O)c3cccc4ccccc34)cc2)s1 | Cytochrome P450 1A2 (CYP1A2, Homo sapiens, UniProt P05177) |  |  | 10 µM | inhibition | < 10% |

Some of these lines once more:
| SMILES | target or system | test | test system | conditions | endpoint | value |
| --- | --- | --- | --- | --- | --- | --- |
| O=C1CC[C@H]2[C@H]3Cc4ccc(O)c5c4[C@@]2(CCN3CCc2ccccc2)[C@H]1O5 |  |  |  |  | log k amino protonation | 9.96 |
| CCc1nnc(NS(=O)(=O)c2ccc(NC(=O)c3cccc4ccccc34)cc2)s1 | Cytochrome P450 1A2 (CYP1A2, Homo sapiens, UniProt P05177) |  |  | 10 µM | inhibition | < 10% |
